Published values gathered from unrelated publications.
Each line is one published result; not all experiments were run side by side.
Organism: Acinetobacter baumannii

SMILES | test | test system | conditions | MIC
CCCCCCCC[N+](C)(C)CCCCCCCCCCOc1cc(OCCCCCCCCCC[N+](C)(C)CCCCCCCC)cc(OCCCCCCCCCC[N+](C)(C)CCCCCCCC)c1.[Br-].[Br-].[Br-] | – | ATCC 17978 | – | 16 µM
CC1(C)[C@H](NC(=O)/C(=N\OCCN)c2csc(N)n2)C(=O)N1OS(=O)(=O)O | agar dilution | ATCC 19606 | – | > 64 µg/mL
CN[C@H](CC(C)C)C(=O)N[C@H]1C(=O)N[C@@H](CC(N)=O)C(=O)N[C@H]2C(=O)N[C@H]3C(=O)N[C@H](C(=O)N[C@H](C(=O)O)c4cc(O)cc(O)c4-c4cc3ccc4O)[C@H](O)c3ccc(c(Cl)c3)Oc3cc2cc(c3O[C@@H]2O[C@H](CO)[C@@H](O)[C@H](O)[C@H]2O[C@H]2C[C@](C)(NCc3ccc(OCc4cn(CC(=O)N[C@H](C(=O)N[C@@H](CCN)C(=O)N[C@H]5CCNC(=O)[C@H]([C@@H](C)O)NC(=O)[C@H](CCN)NC(=O)[C@H](CCN)NC(=O)[C@H](CC(C)C)NC(=O)[C@@H](CC(C)C)NC(=O)[C@H](CCN)NC5=O)[C@@H](C)O)nn4)c(OC)c3)[C@H](O)[C@H](C)O2)Oc2ccc(cc2Cl)[C@H]1O | broth microdilution | ATCC 17978, cation-adjusted Mueller-Hinton broth | 18 to 20 h, 37 °C, 0.002% polysorbate 80 | 32 µg/mL
CC[C@H]1OC(=O)[C@H](C)[C@@H](OC(=O)Cc2c(F)cccc2F)[C@H](C)[C@@H](O[C@@H]2O[C@H](C)C[C@H](N(C)C)[C@H]2O)[C@](C)(OC)C[C@@H](C)C(=O)[C@H](C)[C@@H](O)[C@]1(C)O | microbial growth | ATCC19606 DSM30007 | – | 64 µg/mL
CCCCCCCC(=O)N[C@@H](CCN)C(=O)N[C@H](C(=O)N[C@@H](C)C(=O)N[C@H]1CCNC(=O)[C@H]([C@@H](C)O)NC(=O)[C@H](CCN)NC(=O)[C@H](CCN)NC(=O)[C@H](CC(C)C)NC(=O)[C@@H](Cc2ccccc2)NC(=O)[C@H](CCN)NC1=O)[C@@H](C)O | broth microdilution | ATCC 17978 | 20 h, 37 °C | 4 µg/mL
COc1ccc2ccc(O)c(/C=N/[C@H]3CCCC[C@H]3/N=C/c3ccc(F)cc3O)c2c1 | bacterial growth, broth microdilution | carbapenem-resistant clinical isolate | – | > 40 µM
CCOc1c(NC(=O)c2ccc(NC(=O)[C@H](Cc3c[nH]nn3)NC(=O)c3ccc(NC(=O)/C(C)=C/c4ccc(O)cc4)cc3)cc2)ccc(C(=O)Nc2ccc(C(=O)O)c(O)c2OC)c1O | broth microdilution | ciprofloxacin-resistant | – | 0.5 µg/mL
CCCCCCCCCCn1cc[n+](CCCCCCOc2cc(OCCCCCC[n+]3ccn(CCCCCCCCCC)c3)cc(OCCCCCC[n+]3ccn(CCCCCCCCCC)c3)c2)c1.[Br-].[Br-].[Br-] | – | ATCC 17978 | – | 2 µM
COc1c(NC(=O)c2ccc(NC(=O)c3ccc(NC(=O)[C@H](CC#N)NC(=O)c4ccc(NC(=O)/C(C)=C/c5ccc(O)cc5)cc4)cc3)c(OC)c2O)ccc(C(=O)O)c1O | microbial growth, broth dilution | – | – | 2 µg/mL
CC[C@H]1OC(=O)[C@H](C)[C@@H](OC(=O)Cc2c(F)cc([N+](=O)[O-])cc2F)[C@H](C)[C@@H](O[C@@H]2O[C@H](C)C[C@H](N(C)C)[C@H]2O)[C@](C)(OC)C[C@@H](C)C(=O)[C@H](C)[C@@H](O)[C@]1(C)O | – | DSM 30007 | – | 8 µM
CC1(C)C(NC(=O)C(=NOCC(=O)N2CC3CCCC3C2C(=O)O)c2csc(N)n2)C(=O)N1OS(=O)(=O)O (stereo not shown) | agar dilution | 16-16 | – | > 64 µg/mL
CCCCCCCC(=O)N[C@@H](CCN)C(=O)N[C@H](C(=O)N[C@@H](CN)C(=O)N[C@H]1CCNC(=O)[C@H]([C@@H](C)O)NC(=O)[C@H](CCN)NC(=O)[C@H](CN)NC(=O)[C@H]([C@@H](C)O)NC(=O)[C@@H](CC(C)C)NC(=O)[C@H](CCN)NC1=O)[C@@H](C)O | – | ATCC 17978, CAMHB | 20 h, 37 °C | 4 µg/mL
CC1(C)[C@H](NC(=O)/C(=N\OCCN)c2nsc(N)n2)C(=O)N1OS(=O)(=O)O | agar dilution | ATCC 19606 | – | > 64 µg/mL
CC[C@H]1OC(=O)[C@H](C)[C@@H](OC(=O)Cc2cccc3ccccc23)[C@H](C)[C@@H](O[C@@H]2O[C@H](C)C[C@H](N(C)C)[C@H]2O)[C@](C)(OC)C[C@@H](C)C(=O)[C@H](C)[C@@H](O)[C@]1(C)O | microbial growth | ATCC19606 | – | > 32 µg/mL
CCCCCCC#Cc1cncc(-c2nnc(SCc3ccc(Cl)cc3)n2C)c1 | microbial growth, broth dilution | ATCC17978 | – | > 64 µg/mL
CCCCCCCC(=O)N[C@@H](CCN)C(=O)N[C@H](C(=O)N[C@@H](CCN)C(=O)N[C@H]1CCNC(=O)[C@H]([C@@H](C)O)NC(=O)[C@H](CCN)NC(=O)[C@H](CCN)NC(=O)[C@H](CC(C)C)NC(=O)[C@@H](Cc2ccccc2)NC(=O)[C@H](CCN)NC1=O)[C@@H](C)O | CLSI broth microdilution | 248-01-C.248, CAMHB | 20 h, 37 °C | 0.25 µg/mL

SMILES | test | test system | conditions | MIC
CCCCCCCC(=O)N[C@@H](CN)C(=O)N[C@H](C(=O)N[C@@H](CN)C(=O)N[C@H]1CCNC(=O)[C@H]([C@@H](C)O)NC(=O)[C@H](CCN)NC(=O)[C@H](CCN)NC(=O)[C@H]([C@@H](C)O)NC(=O)[C@@H](CC(C)C)NC(=O)[C@H](CCN)NC1=O)[C@@H](C)O | – | ATCC 17978, CAMHB | 20 h, 37 °C | 0.25 µg/mL
Oc1c(Br)cc(Br)c2nc3c(C(F)(F)F)cc(C(F)(F)F)cc3nc12 | – | 19606 | – | 12.5 µM
CC[C@H]1OC(=O)[C@H](C)[C@@H](OC(=O)Cc2ccc3c(c2)OCO3)[C@H](C)[C@@H](O[C@@H]2O[C@H](C)C[C@H](N(C)C)[C@H]2O)[C@](C)(OC)C[C@@H](C)C(=O)[C@H](C)[C@@H](O)[C@]1(C)O | – | DSM 30007 | – | 16 µM
CCCCCCCCCC[N+](C)(C)CCCCOc1cc(OCCCC[N+](C)(C)CCCCCCCCCC)cc(OCCCC[N+](C)(C)CCCCCCCCCC)c1.[Br-].[Br-].[Br-] | – | ATCC 17978 | – | 1 µM
CCCCCCCC(=O)N[C@@H](CCN)C(=O)N[C@H](C(=O)N[C@@H](CCN)C(=O)N[C@H]1CCNC(=O)[C@H]([C@@H](C)O)NC(=O)[C@H](CCN)NC(=O)[C@H](CCN)NC(=O)[C@H]([C@@H](C)O)NC(=O)[C@@H](CC(C)C)NC(=O)[C@H](CCN)NC1=O)[C@@H](C)O | – | ATCC 17978, CAMHB | 20 h, 37 °C | 2 µg/mL
COc1cc(C(=O)Nc2ccc(C(=O)O)c(O)c2OC)ccc1NC(=O)c1ccc(NC(=O)[C@H](Cc2c[nH]nn2)NC(=O)c2ccc(NC(=O)/C(C)=C/c3ccc(O)cc3)cc2)cc1 | broth microdilution | ciprofloxacin-resistant | – | 8 µg/mL
CCCCCCCC[N+](C)(C)CCCCCCOc1cc(OCCCCCC[N+](C)(C)CCCCCCCC)cc(OCCCCCC[N+](C)(C)CCCCCCCC)c1.[Br-].[Br-].[Br-] | – | ATCC 17978 | – | 2 µM
COc1ccc2ccc(O)c(/C=N/[C@H]3CCCC[C@H]3/N=C/c3cc(C(C)(C)C)ccc3O)c2c1 | bacterial growth, broth microdilution | carbapenem-resistant clinical isolate | – | > 40 µM
CCCCCCCC[C@@H]1NC(=O)[C@@H](Cc2ccccc2)NC(=O)[C@H](CCN)NC(=O)[C@@H](NC(=O)[C@H](CCN)NC(=O)[C@@H](NC(=O)[C@H](CCN)NC(=O)CCCCCCC)[C@@H](C)O)CCNC(=O)[C@H]([C@@H](C)O)NC(=O)[C@H](CCN)NC(=O)[C@H](CCN)NC1=O | broth microdilution | ATCC 19606, colistin-susceptible | – | 0.25 to 0.5 µg/mL
CC1(C)C(NC(=O)C(=NOC2(C(=O)O)CCC2)c2csc(N)n2)C(=O)N1OS(=O)(=O)O (stereo not shown) | agar dilution | 16-16 | – | > 64 µg/mL
CCCCCCCC(=O)N[C@@H](CCN)C(=O)N[C@H](C(=O)N[C@@H](CCN)C(=O)N[C@H]1CCNC(=O)[C@H]([C@@H](C)O)NC(=O)[C@H](CCN)NC(=O)[C@H](CCN)NC(=O)[C@H](CC(C)C)NC(=O)[C@@H](Cc2ccccc2)NC(=O)[C@H](C)NC1=O)[C@@H](C)O | CLSI broth microdilution | 246-01-C.246, CAMHB | 20 h, 37 °C | > 512 µg/mL
CC1(C)C(NC(=O)C(=NOC2(C(=O)O)CC2)c2csc(N)n2)C(=O)N1OS(=O)(=O)O (stereo not shown) | agar dilution | ATCC 19606 | – | 16 µg/mL
C#CCOc1ccc(CN[C@@]2(C)C[C@H](O[C@H]3[C@H](Oc4c5cc6cc4Oc4ccc(cc4Cl)[C@@H](O)[C@@H](NC(=O)[C@@H](CC(C)C)NC)C(=O)N[C@@H](CC(N)=O)C(=O)N[C@H]6C(=O)N[C@H]4C(=O)N[C@H](C(=O)N[C@H](C(=O)NCC(N)=O)c6cc(O)cc(O)c6-c6cc4ccc6O)[C@H](O)c4ccc(c(Cl)c4)O5)O[C@H](CO)[C@@H](O)[C@@H]3O)O[C@@H](C)[C@H]2O)cc1OC | broth microdilution | BAA-747, cation-adjusted Mueller-Hinton broth | 18 to 20 h, 37 °C, 0.002% polysorbate 80 | 128 µg/mL
CC1(C)[C@H](NC(=O)/C(=N\OCc2c(Cl)cccc2Cl)c2csc(N)n2)C(=O)N1OS(=O)(=O)O | agar dilution | ATCC 19606 | – | > 64 µg/mL
CCCCCCCC(=O)N[C@@H](CCN)C(=O)N[C@H](C(=O)N[C@@H](CCN)C(=O)N[C@H]1CCNC(=O)[C@H]([C@@H](C)O)NC(=O)[C@H](C)NC(=O)[C@H](CCN)NC(=O)[C@H](CC(C)C)NC(=O)[C@@H](Cc2ccccc2)NC(=O)[C@H](CCN)NC1=O)[C@@H](C)O | CLSI broth microdilution | 246-01-C.246, CAMHB | 20 h, 37 °C | 256 µg/mL

Some of these lines once more:
SMILES | test | test system | conditions | MIC
CC[C@H]1OC(=O)[C@H](C)[C@@H](OC(=O)Cc2cccc3ccccc23)[C@H](C)[C@@H](O[C@@H]2O[C@H](C)C[C@H](N(C)C)[C@H]2O)[C@](C)(OC)C[C@@H](C)C(=O)[C@H](C)[C@@H](O)[C@]1(C)O | microbial growth | ATCC19606 | – | > 32 µg/mL
CC[C@H]1OC(=O)[C@H](C)[C@@H](OC(=O)Cc2c(F)cc([N+](=O)[O-])cc2F)[C@H](C)[C@@H](O[C@@H]2O[C@H](C)C[C@H](N(C)C)[C@H]2O)[C@](C)(OC)C[C@@H](C)C(=O)[C@H](C)[C@@H](O)[C@]1(C)O | – | DSM 30007 | – | 8 µM
CC1(C)C(NC(=O)C(=NOC2(C(=O)O)CCC2)c2csc(N)n2)C(=O)N1OS(=O)(=O)O (stereo not shown) | agar dilution | 16-16 | – | > 64 µg/mL
CCCCCCCCCCn1cc[n+](CCCCCCOc2cc(OCCCCCC[n+]3ccn(CCCCCCCCCC)c3)cc(OCCCCCC[n+]3ccn(CCCCCCCCCC)c3)c2)c1.[Br-].[Br-].[Br-] | – | ATCC 17978 | – | 2 µM
